Assay results pooled from the literature.
A part holds a random share of what one study measured.

Block 1
Target: Protein max, full length (MAX, Homo sapiens, UniProt P61244-2, residues 1-151)
Method: protein-binding microarray
Molecule type: double-stranded DNA, one strand shown
Medium: in vitro
Concentration: not given
Notes: k-mer, scored over probes, only values ≥0.25
Direction: higher = stronger binding
| Strand | E-score |
| --- | --- |
| ACATGAGA | 0.329 |
| GACGCACA | 0.294 |
| ATAACATG | 0.271 |
| CACGATAC | 0.26 |
| AATCACGT | 0.451 |
| CATGGTGA | 0.328 |
| AACACGGG | 0.374 |
| ACATGTGG | 0.481 |
| ACGAGGCA | 0.298 |
| CATGGCCG | 0.362 |
| ACATGGTC | 0.416 |
| ACGCGCAG | 0.312 |
| CGCAGCAC | 0.251 |
| GTGGGAAC | 0.251 |
| ACGAGGTA | 0.335 |
| ATGCAGCC | 0.271 |
| CACATGAC | 0.455 |
| CGCATGCC | 0.422 |
| AGATCATG | 0.268 |
| GCCACGCA | 0.355 |
| CACGAGAG | 0.32 |
| CGGAACAC | 0.266 |
| GCGTGGCC | 0.427 |
| CCCCACGG | 0.269 |
| AATCATGT | 0.389 |

Block 2
Target: Interferon regulatory factor 5, full length, phosphomimetic (IRF5, Homo sapiens, UniProt Q13568-2, residues 1-514, K96S/S451D/S453D/S456D/S462D)
Method: protein-binding microarray
Molecule type: double-stranded DNA, one strand shown
Medium: in vitro
Concentration: 250 nM
Notes: 60-bp whole probe
Added: salmon DNA 0.4 mg/ml
Reference: random background probes
Direction: higher = stronger binding
Shared flanks, not repeated: GCCTAGCAC … GTCTTGATTCGCTTGACGCTGCTG
| Strand | log fluorescence |
| --- | --- |
| GACGGACGGGGACTGGGGACGTGCTAG | -0.656 z-score |
| GACGATTACGGGTATCGAGACGTGCTA | 0.677 z-score |
| GACGGTATCCTTACCCTGACGTGCTAG | -0.168 z-score |
| GACGATCGCAGTTTCGAGACGTGCTAG | 4.18 z-score |
| GTCGGACTGGGTATCGGGACGTGCTAG | 0.235 z-score |
| TTAGGTCTCGAACTGGGTTAGTGCTAG | -0.207 z-score |
| TTAGGTCGCCTTCTCCTTTAGTGCTAG | -0.108 z-score |
| TTAGGTCTCGGTATCGGTTTGTGCTAG | 4.95 z-score |
| TCAAGTCCCGAGAATGGTACTGTGCTA | -0.238 z-score |
| TTAGGACGGGGACTGGGTTAGTGCTAG | -0.179 z-score |
| TCAGGTATGGCCTATTTAACTGTGCTA | -0.338 z-score |
| TTAGAACTGGGGTTTTGATTAGTGCTA | 0.341 z-score |
| GACGGTATCCTTTTCCTGACGTGCTAG | 0.405 z-score |
| CTTATTCTCTACTTGTGTCTGTGCTAG | 0.796 z-score |
| GACGGACTGGGGTTTCGGAACGTGCTA | 1.33 z-score |
| TTAGATCTCAGACTGGAATAGTGCTAG | -0.0262 z-score |
| GTCAGGGGTCTTGCTCTGTAGTGCTAG | -0.876 z-score |
| TTAGATATCAGTATCGAGTAGTGCTAG | 3.96 z-score |
| TTGGGTCTCCTTATCCTTTAGTGCTAG | -0.378 z-score |

Block 3
Target: Hepatocyte nuclear factor 3-alpha (Foxa1, Mus musculus, UniProt P35582, residues 1-468, full length assumed)
UniProt P35582, sequence (whole entry, looked up): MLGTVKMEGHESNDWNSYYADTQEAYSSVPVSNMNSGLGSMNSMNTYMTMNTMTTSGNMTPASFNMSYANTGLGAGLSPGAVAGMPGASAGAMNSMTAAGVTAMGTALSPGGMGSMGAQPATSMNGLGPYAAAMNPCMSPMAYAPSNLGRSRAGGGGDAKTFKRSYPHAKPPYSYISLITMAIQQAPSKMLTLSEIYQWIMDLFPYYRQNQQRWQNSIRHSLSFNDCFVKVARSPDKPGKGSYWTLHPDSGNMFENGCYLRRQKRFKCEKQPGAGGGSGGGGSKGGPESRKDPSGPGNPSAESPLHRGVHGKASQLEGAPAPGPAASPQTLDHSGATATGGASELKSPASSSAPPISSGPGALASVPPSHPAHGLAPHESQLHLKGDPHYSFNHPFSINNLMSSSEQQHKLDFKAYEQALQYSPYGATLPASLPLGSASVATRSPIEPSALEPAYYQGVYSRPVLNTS
Method: EMSA with sequencing
Molecule type: double-stranded DNA, one strand shown
Medium: in vitro
Concentration: 10 and 20 nM
Notes: whole designed probe, mean of two concentrations, ends assumed
Reference: negative control set to 0
Direction: higher = stronger binding
| Strand | normalised bound fraction [ratio] |
| --- | --- |
| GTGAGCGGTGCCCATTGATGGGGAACATCCACGAACCTGGCCCTGTCTGGTAACCACAGTGAACCATCGCAAGATACAGCACTATGTGCCCAGTTGGGCTTAATGACTCACGGAAATGTGTCAACACTGGCACATCCTCAGGGACACGGAAGTGTACTTGTTTTTGGAGAGGGACTAGACCTTCATCCTTGAGGTGAAGAAGATTTTCTCTCCAGGGTGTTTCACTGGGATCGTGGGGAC | 0.0418 |
| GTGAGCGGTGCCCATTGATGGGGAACTTAAAACACACCACCTACATATTTCACATGAGTGAACCAGGATGAATGAATGGATGTTTGCAAGCACCCCAGGGTCCAGGAGGTGAAGTTATGCAATCTTCAGTTGTTGTTATATCACCCTCTGCCCTTGGCTAAGGGCCAATATCAACAAGTTCTCTTTTTCCCATCTGCCTTAGAGTTTTCCATGAAGATTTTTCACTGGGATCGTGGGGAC | 0.0209 |
| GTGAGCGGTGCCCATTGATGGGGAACCCCTCATCCTGGGTGTCGGGGTGGGAGGTGTTCTCATCATGAATGGGAGGCGTACCCAGATCCAGCTCTGCCTTTTTTTAACCAAACCAGAGTGTAAACAAATGGCTGGTGACTCACCATTAATCGACATAGCAAGATATGATACATGCCAGGAGAGAAAAAGAAAGTGCTGATGGAAAAATAATCTCATTAGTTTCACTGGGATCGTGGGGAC | 0.3 |
| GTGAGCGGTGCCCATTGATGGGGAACATCTTCCCCCTCTTCCTTGCCCCACCAGCTCACCTTCCCGGGTTATTTGCACAAAGGAAAATAAATAAAGCCGGCATTCGTTAACCCTCTTCACGCGCATACTGCTGTTTGCTCTGCATGAATCATGGTCCTTACGCGACGCCAGGCTCCGGGAGAGCAAAGCACCGTGTCAGGCGCATGATCCGGGCTCGCCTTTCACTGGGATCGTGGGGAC | 0.376 |
| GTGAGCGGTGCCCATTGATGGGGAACATCTTCCCCCTCTTCCTTGCCCCACCAGCTCACCTTCCCGGGTTGTTTACTTTGAGGAAATTAATATAAGCCGGCATTCGTTAACCCTCTTCTGGCGCAAACTGCACATTGGTCTGGATGAATCATGGTCCTTTGGCGACGCCAGGCTCCGGGAGAGCAAAGCACCGTGTCAGGGCCATGATCCGGGGTGGCCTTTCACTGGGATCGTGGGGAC | 0.231 |

Block 4
Target: RNA binding protein fox-1 homolog 2, RRM domain, GST-SBP tag (RBFOX2, Homo sapiens, UniProt O43251-10, residues 100-194)
Method: RNA Bind-n-Seq
Molecule type: RNA
Medium: in vitro
Concentration: 365 nM
Notes: natural RNA segment, single round, ends assumed
Reference: no-protein control
Direction: higher = stronger binding
Target sequence (chain): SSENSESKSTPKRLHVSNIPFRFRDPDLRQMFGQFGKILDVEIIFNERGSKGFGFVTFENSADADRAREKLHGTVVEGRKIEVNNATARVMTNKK
| Strand | RBNS enrichment (R) |
| --- | --- |
| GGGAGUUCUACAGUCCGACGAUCCAGAAAAGCUAUGAUUCCAUUAGAAGACUUCUGGAGGUCCCCAGAUCUUUGGAGUGUGGGAAUGGAAGCUGCUUUGAGGCAAAGGCUCAUAAACCCUGCAAGUCUUCAUGUGGAAUUCUCGGGUGCCAA | 0.3 |
| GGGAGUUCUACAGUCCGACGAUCGUGACAAGUGGUCCUCACCAGUGUUAAGUGCUUCUGGAUUCAUGGGUGAGUUCCUUGGACGACCCCAGACAGGCUUCUGGAUCUGGCUCCAGGGUCAUCACAUGUCAAAGUGGAAUUCUCGGGUGCCAA | 0.206 |
| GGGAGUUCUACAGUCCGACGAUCGGUUGUAGAUACACUUUAUAACAUUUUAUAGUUUAAAGAGCUUUAUUAAUGCAAUAAAUUAACUUUGUACACAUUUUUAUAUAAAAAAACAGCAAGUGAUUUCAGAAUGUUGGAAUUCUCGGGUGCCAA | 0.713 |
| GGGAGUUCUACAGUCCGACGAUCCUCUGACCUCUGGUUCUAUUUUGGUAAGCUCCCAGCAGACACUUCCAAGUCUUGUACCAAGGGCAGUGCACACUAGGUCUAAGUUGGCAUAAACCUUCAUAUUCUGUCUGUGGAAUUCUCGGGUGCCAA | 0.447 |
| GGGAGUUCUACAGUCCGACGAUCAGUCAAACUUUAUUACAACAAUAACUGAAGUUAUUCUUUUAGGUUCUCGUGAAAUUCUCACUGAAAGCCACAUUCUUAGCCUAAGGCAUUUCAUCUUUUAUGAUAUAAAAUGGAAUUCUCGGGUGCCAA | 0.283 |
| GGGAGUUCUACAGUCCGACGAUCUUCUCUAAAAGUGUUGAAUGAUACAGCCAUUGCACUGAAGUUUGAGCUGUGUGCGUGUGAAUUUAUACUGUUUCAAAAAUUUCAAAUGCAUGGUAGCAUGUAGAAAGGUUUGGAAUUCUCGGGUGCCAA | 4.66 |
| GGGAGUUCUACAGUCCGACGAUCGGGCCCAUGCCGAGUGGAUGCCCCCCACCCUCUCUCCUGGGCCACUGAGGAGAGGGGAGAGAGCUGGUGAUUCCAGAAGGGUGACCCGGACAGCCUAGCUGGGGGCUCCCUGGAAUUCUCGGGUGCCAA | 0.284 |
| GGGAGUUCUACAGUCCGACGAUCUUUAACCACAUUUCUGAAUGUAUAAAAAUACCAAUUAUUUUCCUACAGCCCUUUGUACUUCAAAAUAUGUUUUUGUGUCCAUCAGUAUUAACUAUUGGUAUACUACUGGUUGGAAUUCUCGGGUGCCAA | 0.784 |
